Assay results from different studies.
A part holds a random share of what one study measured. Values joined by “and” are separate records of one study, mostly repeats; a detail may differ.

Block 1 — method: universal PBM; form: double-stranded DNA, one strand shown; medium: in vitro; tested at: 600 nM; direction: higher = stronger binding
Target: Sal-like protein 4, full length isoform A (SALL4, Homo sapiens, UniProt Q9UJQ4, residues 1-1053)
Chain of UniProt Q9UJQ4 (whole entry, looked up): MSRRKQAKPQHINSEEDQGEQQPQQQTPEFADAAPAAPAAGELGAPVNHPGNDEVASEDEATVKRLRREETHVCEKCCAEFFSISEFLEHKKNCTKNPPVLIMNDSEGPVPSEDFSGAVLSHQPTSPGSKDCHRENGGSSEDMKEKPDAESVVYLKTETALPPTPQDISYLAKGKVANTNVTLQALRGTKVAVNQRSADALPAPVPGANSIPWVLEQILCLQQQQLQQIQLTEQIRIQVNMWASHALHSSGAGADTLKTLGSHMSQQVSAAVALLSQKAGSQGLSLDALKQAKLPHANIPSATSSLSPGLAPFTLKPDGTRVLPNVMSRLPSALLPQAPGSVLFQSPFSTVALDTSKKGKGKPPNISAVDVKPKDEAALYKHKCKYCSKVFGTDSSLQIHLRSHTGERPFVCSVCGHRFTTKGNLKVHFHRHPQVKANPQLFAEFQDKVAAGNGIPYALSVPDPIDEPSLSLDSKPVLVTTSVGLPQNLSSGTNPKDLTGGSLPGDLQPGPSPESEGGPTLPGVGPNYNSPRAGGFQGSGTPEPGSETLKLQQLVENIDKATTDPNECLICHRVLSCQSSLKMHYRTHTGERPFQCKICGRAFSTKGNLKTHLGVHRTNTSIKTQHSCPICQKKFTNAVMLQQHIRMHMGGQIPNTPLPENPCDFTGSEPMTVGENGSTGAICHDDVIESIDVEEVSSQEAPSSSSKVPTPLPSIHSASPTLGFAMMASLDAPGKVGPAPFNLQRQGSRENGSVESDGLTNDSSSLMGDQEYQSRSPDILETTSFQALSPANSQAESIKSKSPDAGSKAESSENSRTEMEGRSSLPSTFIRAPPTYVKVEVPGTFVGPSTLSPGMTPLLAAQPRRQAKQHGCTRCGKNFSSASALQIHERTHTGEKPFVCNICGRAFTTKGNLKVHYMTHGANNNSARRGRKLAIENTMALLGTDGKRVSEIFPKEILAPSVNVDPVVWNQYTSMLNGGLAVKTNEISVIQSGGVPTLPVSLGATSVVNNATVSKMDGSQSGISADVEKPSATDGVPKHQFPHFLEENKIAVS
Notes: 8-mer, flanks averaged, mean of replicates
| Oligonucleotide | E-score |
| --- | --- |
| GGTACTGA | -0.14 |
| ACTCGACG | -0.145 |
| AGTGCATG | 0.0683 |
| AGCCCTTC | -0.215 |
| ATGTGCAC | -0.00851 |
| GCCGCGAC | -0.382 |
| CCTACACA | 0.0611 |
| GCCGATCC | -0.194 |

Block 2 — method: protein binding microarray; form: double-stranded DNA, one strand shown; medium: in vitro; tested at: not given; baseline: not given; direction: higher = stronger binding
Target: Histone acetyltransferase KAT6A, winged helix 1, GST fusion (KAT6A, Homo sapiens, UniProt Q92794, residues 1-85)
Notes: 8-mer, flanks averaged, mean of 2 arrays, mostly near background
Residues (chain): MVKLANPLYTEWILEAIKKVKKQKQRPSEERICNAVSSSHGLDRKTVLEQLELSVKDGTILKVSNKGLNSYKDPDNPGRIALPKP
| Oligonucleotide | E-score |
| --- | --- |
| AGGTCTTA | -0.133 |
| CAGCTGGC | 0.0238 |
| ATCAATTA | -0.105 |
| TCACAAGA | -0.137 |
| TCCTGTCA | -0.0905 |
| ACTATAGT | -0.111 |
| GAGTGAGC | -0.171 |
| AAAGACTT | -0.271 |

Block 3 — method: protein-binding microarray; form: double-stranded DNA, one strand shown; medium: in vitro; tested at: 940 nM top; notes: 60-bp whole probe; added: salmon DNA 0.4 mg/ml; baseline: random background probes; direction: higher = stronger binding; constant ends, left off below: GCCTAGCAC … GTCTTGATTCGCTTGACGCTGCTG
Target: Interferon regulatory factor 5, full length, phosphomimetic (IRF5, Homo sapiens, UniProt Q13568-2, residues 1-514, S451D/S453D/S456D/S462D)
| Oligonucleotide | fitted relative affinity [z-score] |
| --- | --- |
| TTAGGTATCATACTGCTTTAGTGCTAG | 1.9 |
| TCACATTTTTCCCTCTGACTGTGCTAG | 1.45 |
| TAATGCTTCTGTATTCATGAGTGCTAG | 0.293 |
| TCACTTCTGGATCTCAGACTGTGCTAG | 0.4 |
| TTAGATTTCGGTTCCGGTTAGTGCTAG | 4.05 |
| GACGGGTTCCTACTGCTGACGTGCTAG | -0.135 |
| AGAGTGCTCATGCTTCTTAGGGTGCTA | -0.568 |
| TTAGAACTGAGTCTCTATTAGTGCTAG | 0.0483 |

Block 4 — cell line: HEK-293T/ACE2; tested at: concentration not given; time: 16 (unit not given); baseline: vehicle
| Structure (SMILES) | viability |
| --- | --- |
| CN(C)CC/C=C1/c2ccccc2Sc2ccc(Cl)cc21 | 99.8% |
| C#C[C@]1(O)CC[C@H]2[C@@H]3CCC4=CC(=O)CC[C@@H]4[C@H]3CC[C@@]21C | 101% |
| C[C@H]1C[C@H]2[C@@H]3CCC4=CC(=O)C=C[C@]4(C)[C@@]3(F)[C@@H](O)C[C@]2(C)[C@@]1(O)C(=O)CO | 102% |
| CCCCN1CCCC[C@H]1C(=O)Nc1c(C)cccc1C | 101% and 100% |

Block 5 — observed: enzyme activity; mode: inhibitor; tested at: 20 µM; notes: primary screen
Target: Replicase polyprotein 1ab, main protease (rep, Severe acute respiratory syndrome coronavirus 2, UniProt P0DTD1)
| Structure (SMILES) | inhibition [%] |
| --- | --- |
| CC[C@H](CO)Nc1nc(NCc2ccc(-c3ccccn3)cc2)c2ncn(C(C)C)c2n1 | 99.5 |
| Nc1c[n+](N2CCOCC2)no1 | 73.9 |
| C=C1C(=O)O[C@@H]2[C@H]3O[C@]3(C)CC/C=C(\C)CC[C@@H]12 | 43.9 |
| O=C(NC1CCCCC1)N(CCCl)[N+][O-] | 62 |

Block 6 — observed: enzyme activity; mode: inhibitor; tested at: 20 µM
Target: Replicase polyprotein 1ab, polymerase (rep, Severe acute respiratory syndrome coronavirus 2, UniProt P0DTD1)
| Compound | inhibition [%] |
| --- | --- |
| COc1ccc(/C=C/C(=O)/C=C(O)/C=C/c2ccc(OC)c(OC)c2)cc1OC | 22.9 |
| Cc1ccc(C(=O)Nc2ccc(Oc3cc4cnn(C)c4cc3-c3cn[nH]c3)c(F)c2)c(=O)n1-c1ccc(F)cc1 | 1.8 |
| NC(=O)CN1CC[C@@H](NC(=O)[C@@H]2CCCN2)C1=O | -6.58 |
| CN(C)c1ccc(C(=C2C=CC(=[N+](C)C)C=C2)c2ccc(N(C)C)cc2)cc1 | 20.4 |
| Cc1nc2c(c(=O)[nH]1)CSCC2 | 2.61 |
| C[C@H]([C@@H](O)c1ccc(O)cc1)N1CCC(Cc2ccccc2)CC1 (racemic) | 1.85 |
| COC(=O)[C@@H](N)CCCNC(=N)N[N+](=O)[O-] | 1.6 |
| CC(C)=CCC[C@](C)(O)[C@H]1CC[C@]2(C)[C@@H]1[C@H](O)C[C@@H]1[C@@]3(C)CC[C@H](O)C(C)(C)[C@@H]3CC[C@]12C | -3.39 |
| CN(C)CC(c1ccc(O)cc1)C1(O)CCCCC1 (stereo not drawn) | -4.11 |
| CC(=O)O[C@H]1C(=O)[C@@]2(C)[C@H]([C@H](OC(=O)c3ccccc3)[C@]3(O)C[C@H](OC(=O)[C@H](O)[C@@H](NC(=O)c4ccccc4)c4ccccc4)C(C)=C1C3(C)C)[C@]1(OC(C)=O)CO[C@@H]1C[C@@H]2O | 3.89 |
| C[C@H](N)C(=O)N[C@@H](CCC(N)=O)C(=O)O | -7.09 |
| COc1cc(N)c(Cl)cc1C(=O)N[C@@H]1CCN(CCCOc2ccc(F)cc2)C[C@@H]1OC (racemic) | -3.57 |
| CO[C@H]1[C@H](O)[C@H](O[C@H]2CC[C@@]3(C=O)[C@H](CC[C@@H]4[C@@H]3CC[C@]3(C)[C@@H](C5=CC(=O)OC5)CC[C@]43O)C2)O[C@@H](C)[C@@H]1O | 2.03 |
| C1=C2CCCN[C@H]2[C@@H]2C[C@H]1[C@H]1CCCCN1C2 | 1.63 |
| CC(C)(C)n1nc(-c2cccc3ccccc23)c2c(N)ncnc21 | -3.1 |
| COc1cc2ncnc(Nc3cccc(Cl)c3F)c2cc1OC(=O)N1CCN(C)C[C@H]1C | -5.88 |
| C[N+]1(C)CCC(=C(c2ccccc2)c2ccccc2)CC1 | -1.13 |
| COc1ccc2c3c1O[C@H]1C[C@@H](O)C=C[C@@]31CCN(C)C2 | 18.3 |
| CCn1cc(C(=O)O)c(=O)c2cnc(N3CCCC3)nc21 | 9.89 |
| Cc1ccc(Cl)cc1N(CC(=O)Nc1c(F)cccc1F)S(C)(=O)=O | -2.43 |
| CCOc1ccc(S(=O)(=O)O)c2cccnc12 | -3.1 |
| CCOC(=O)c1ccc(OC(=O)CCCCCNC(=N)N)cc1 | 4.82 |
| CC(=O)[C@H]1CC[C@H]2[C@@H]3CCC4=CC(=O)CC[C@]4(C)[C@H]3CC[C@]12C | 8.45 |
| CC(C)(C)C[C@@H]1N[C@@H](C(=O)N[C@H]2CC[C@H](O)CC2)[C@H](c2cccc(Cl)c2F)[C@]12C(=O)Nc1cc(Cl)ccc12 | -2.19 |
| CO/N=C(\N)c1ccc(-c2ccc(-c3ccc(/C(N)=N/OC)cc3)o2)cc1 | 3.94 |

A few entries again (block 3):
| Oligonucleotide | fitted relative affinity [z-score] |
| --- | --- |
| AGAGTGCTCATGCTTCTTAGGGTGCTA | -0.568 |
| TTAGATTTCGGTTCCGGTTAGTGCTAG | 4.05 |
| TTAGGTATCATACTGCTTTAGTGCTAG | 1.9 |
| TCACATTTTTCCCTCTGACTGTGCTAG | 1.45 |
| GACGGGTTCCTACTGCTGACGTGCTAG | -0.135 |
| TTAGAACTGAGTCTCTATTAGTGCTAG | 0.0483 |
| TCACTTCTGGATCTCAGACTGTGCTAG | 0.4 |
| TAATGCTTCTGTATTCATGAGTGCTAG | 0.293 |
